Literature values that unrelated publications cite.
Protocols differ between the studies behind these lines. ± gives the spread as reported. Ends that are not written are not given here. No end group written: not given here.
B1: O-methyl-Tyr, C-amide; chain Y(Me)ECG-NH2 (N-terminus assumed; SMILES COc1ccc(C[C@H](N)C(=O)N[C@@H](CCC(=O)O)C(=O)N[C@@H](CS)C(=O)NCC(N)=O)cc1)
UniProt P00698, sequence (whole entry, looked up): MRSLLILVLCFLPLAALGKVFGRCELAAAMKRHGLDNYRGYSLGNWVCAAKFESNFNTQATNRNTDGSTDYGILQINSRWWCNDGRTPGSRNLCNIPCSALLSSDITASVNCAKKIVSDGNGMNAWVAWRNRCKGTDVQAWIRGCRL
UniProt P0AES9, sequence (whole entry, looked up): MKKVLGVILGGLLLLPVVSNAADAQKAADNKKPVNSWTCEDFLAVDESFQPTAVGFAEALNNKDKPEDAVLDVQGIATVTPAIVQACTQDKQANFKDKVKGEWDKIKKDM

Molecule	assay	system	setting	how to read	quantity	value
C[C@]12CC[C@@H]3c4ccc(O)cc4CC[C@H]3[C@@H]1CC[C@H]2O	–	rat transient MCA occlusion	dose not given, 24 h pretreatment	–	mean ischemic area	6.3 ± 2.3%
C[C@]1(c2nc3c(C(N)=O)cccc3[nH]2)CCCN1	–	human, TNBC	50 mg twice daily, then AC, together with: paclitaxel, carboplatin AUC 6	–	pathological complete response rate	53%
CC1(C)CCC(CN2CCN(c3ccc(C(=O)NS(=O)(=O)c4ccc(NCC5CCOCC5)c([N+](=O)[O-])c4)c(Oc4cnc5[nH]ccc5c4)c3)CC2)=C(c2ccc(Cl)cc2)C1	–	relapsed/refractory AML patients	800 mg initial, monotherapy	–	response rate	19%
C[C@@H](NCCCc1cccc(C(F)(F)F)c1)c1cccc2ccccc12	–	human primary hyperparathyroidism	oral, dose not given, normal renal function	–	time to iPTH return to baseline	≤ 12 h
CC[C@H](C)[C@@H]1NC(=O)[C@H](CCCNC(=N)N)NC(=O)[C@H](CC(=O)O)NC(=O)[C@H](CC(C)C)NC(=O)[C@H](CCCCN)NC(=O)[C@H](CC(C)C)NC(=O)CNC(=O)[C@H](Cc2ccccc2)NC(=O)[C@@H](NC(=O)CNC(=O)[C@H](CCCCN)NC(=O)[C@H](CO)NC(=O)[C@H](CC(C)C)NC(=O)CNC(=O)[C@H](CCCCN)NC(=O)[C@H](CCCCN)NC(=O)[C@H](CC(N)=O)NC(=O)[C@H](C)NC(=O)CNC(=O)[C@H](CCCCN)NC(=O)[C@H](Cc2ccc(O)cc2)NC(=O)[C@H](CCCCN)NC(=O)[C@H](CCCNC(=N)N)NC(=O)[C@H](C)NC(=O)[C@H](CC(N)=O)NC(=O)[C@@H]2CCCN2C(=O)[C@H](Cc2c[nH]cn2)NC(=O)[C@H](CCC(=O)O)NC(=O)[C@H](CCC(N)=O)NC(=O)CNC(=O)[C@@H]2CCCN2)CSSC[C@@H](C(=O)O)NC(=O)CNC(=O)[C@H](CC(C)C)NC(=O)CNC(=O)[C@H](CO)NC(=O)[C@H](CCSC)NC(=O)[C@H](CO)NC(=O)CNC1=O	–	human, achondroplasia	sc, 15 µg/kg daily, 52 weeks, phase III	reference: placebo	difference in annualized growth velocity	1.57 cm/year
CC(=O)O[C@H]1CC[C@@]2(C)C(=CC[C@@H]3[C@@H]2CC[C@]2(C)C(c4cccnc4)=CC[C@@H]32)C1	–	human mCRPC, pre-chemotherapy	dose not given, together with: prednisone	reference: prednisone alone	overall survival gain	4.4 months
CC[C@H]1OC(=O)[C@H](C)[C@@H](O[C@H]2C[C@@](C)(OC)[C@@H](O)[C@H](C)O2)[C@H](C)[C@@H](O[C@@H]2O[C@H](C)C[C@H](N(C)C)[C@H]2O)[C@](C)(O)C[C@@H](C)C(=O)[C@H](C)[C@@H](O)[C@]1(C)O	–	diabetic gastroparesis patients	intravenous, dose not given, 60 min	–	gastric retention	21%
CN1CCN(CCOc2cc(OC3CCOCC3)c3c(Nc4c(Cl)ccc5c4OCO5)ncnc3c2)CC1	–	human platinum-sensitive ovarian cancer	dose not given, together with: paclitaxel and carboplatin	–	response rate	53.4%
CO[C@H]1/C=C/O[C@@]2(C)Oc3c(C)c(O)c4c(O)c(c(/C=N/N5CCN(C)CC5)c(O)c4c3C2=O)NC(=O)/C(C)=C\C=C\[C@H](C)[C@H](O)[C@@H](C)[C@@H](O)[C@@H](C)[C@H](OC(C)=O)[C@@H]1C	Western blot, measured: P-glycoprotein	human, intestine	dose not given, 23 d	reference: baseline	protein level	3.5 fold
O=C(CCC/C=C\C[C@@H]1[C@@H](CC[C@@H](O)CCc2ccccc2)[C@H](O)C[C@@H]1O)OCCCCO[N+](=O)[O-]	–	patients with OHT or POAG	topical ocular, 0.024%, 3 months, all post-baseline visits	–	IOP	17.8 to 18.7 mmHg
COc1cc(OC)cc(N(CCNC(C)C)c2ccc3ncc(-c4cnn(C)c4)nc3c2)c1	–	human metastatic urothelial carcinoma	dose not given, phase II FGFR3 mutation or FGFR2/3 fusion	–	objective response rate	40%
CCCc1nn(C)c2c(=O)[nH]c(-c3cc(S(=O)(=O)N4CCN(C)CC4)ccc3OCC)nc12	ambulatory blood pressure monitoring, measured: DBP	healthy and hypertensive humans	100 mg, evening dosing	–	blood pressure reduction	-4.5 mmHg
NC(=O)N1c2ccccc2C[C@H](O)c2ccccc21	psychomotor seizure protection	mice	6 Hz 44 mA 3 s stimulation	–	ED50	12.1 mg/kg
COc1ccc(F)cc1C(=O)NCc1ccc(-c2nn([C@@H](C)C(F)(F)F)c(N)c2C(N)=O)cc1	–	CLL/SLL patients, prior covalent BTKi	dose not given	–	overall response rate	62%
O=C1NC(=O)C(c2ccccc2)(c2ccccc2)N1	protection from seizures	CF-1 mice, 6 Hz corneal stimulation	ip, together with: 22 mA	–	ED50	9.4 mg/kg
CCCOc1ccc(S(=O)(=O)NCCC2CCCN2C)cc1-c1nc2c(CCC)nn(C)c2c(=O)[nH]1 (stereo not shown)	–	erectile dysfunction patients	dose not given, meta-analysis	reference: placebo, direction not given	IIEF-EF score change	5.65
bevacizumab	–	human, advanced non-squamous NSCLC	dose not given, phase III, together with: paclitaxel and carboplatin	reference: chemotherapy alone	median overall survival	12.3 months
NC(=O)N1c2ccccc2C=Cc2ccccc21	psychomotor seizure protection	mice	6 Hz 44 mA 3 s stimulation	–	ED50	9.5 mg/kg
CCC1(C)CC(=O)NC1=O (stereo not shown)	protection from seizures	CF-1 mice, 6 Hz corneal stimulation	ip, together with: 32 mA	–	ED50	167 mg/kg
CONC(=N)c1ccc(-c2ccc(-c3ccc(C(=N)NOC)cc3)o2)cc1	–	human, first-stage African trypanosomiasis	po, dose not given	–	cure rate	95%
CC(=O)O[C@H]1Cc2ccccc2N(C(N)=O)c2ccccc21	–	mouse pilocarpine chronic epilepsy	p.o., 150 mg/kg once daily, 6 weeks	reference: vehicle	epileptiform discharge duration decrease	92%
COCCOCCOCCOc1ccc(C2=N[C@@](C)(C(=O)O)CS2)c(O)c1	–	bile duct-cannulated rats, non iron-overloaded	oral, 300 µmol/kg, 24 h, monosodium salt	–	iron clearing efficiency	5.5 ± 1.9%
LYZ (Gallus gallus, UniProt P00698)	NMR, measured: Asp101	–	NaCl 100 mM, numbering of the source	–	pKa	4.5
CCC(C)c1c(O)ccc2c1CC[C@@H]1[C@@H]2CC[C@]2(C)C(=O)CC[C@@H]12 (stereo partly shown)	lipid peroxidation, TBARS	rat brain homogenate	together with: 50 µM ferric ions	–	IC50	4.91 µM
CN1CCC(c2ccccc2CC(C)(C)Nc2nc(N3CCOCC3)nc(-n3c(C(F)F)nc4ccccc43)n2)CC1	basophil activation, inhibitor	healthy human volunteers, peripheral blood	–	–	EC50	0.001 µM
B1	hydroxyl radical scavenging	–	–	–	EC50	0.032 ± 0.006 µM
COc1ccc(C2=N[C@@](C)(C(=O)[O-])CS2)c(O)c1.[Na+]	–	bile duct-cannulated rats, non iron-overloaded	oral, 300 µmol/kg, 24 h, monosodium salt	–	iron clearing efficiency	6.6 ± 2.8%
CC(C)(C)OC[C@@H]1C(=O)NCCN1C(=O)C[C@H](N)Cc1cc(F)c(F)cc1F	–	type 2 diabetes patients	oral, 5 mg once daily, 12 weeks	reference: placebo	HbA1c reduction	0.57%

Molecule	assay	system	setting	how to read	quantity	value
semaglutide	–	type 2 diabetes patients	1.0 mg, 40 weeks	reference: baseline	body weight change	-5.7 kg
KCNTATCATQRLANFLVHSSNNFGPILPPTNVGSNTY (Pramlintide; not fully specified (C-terminus, bridges); cysteine pairing not given here; sequence looked up)	–	peptide, obese humans	360 µg twice daily, 6 months, completers, with lifestyle intervention	reference: baseline	body weight loss	7 to 8%
Nc1nc(Cl)nc2c1ncn2[C@H]1C[C@H](O)[C@@H](CO)O1	–	paediatric AML patients	dose not given, before induction therapy	–	complete remission rate	27%
hdeA mature protein (Escherichia coli, UniProt P0AES9)	NMR, measured: Glu81	–	298 K, numbering of the source	–	pKa	4.23
C[C@]12CC[C@@H]3c4ccc(O)cc4CC[C@H]3[C@@H]1CC[C@@H]2OC(=O)c1ccccc1	lipid peroxidation, TBARS	rat brain homogenate	together with: 50 µM ferric ions	–	IC50	14.9 µM
Neurokinin A	bladder contraction, agonist	human bladder strips	–	–	EC50	~0.04 µM
Nc1nnc(-c2cccc(Cl)c2Cl)c(N)n1	protection from seizures	CF-1 mice, 6 Hz corneal stimulation	ip, together with: 22 mA	–	ED50	4.4 mg/kg
C[C@]12CC=C3c4ccc(O)cc4CC[C@H]3[C@@H]1CC[C@@H]2O	lipid peroxidation, TBARS	rat brain homogenate	together with: 50 µM ferric ions	–	IC50	4.92 µM
semaglutide	–	human adults overweight or obese non-diabetic	2.4 mg, 2 years	–	placebo-subtracted weight reduction	13%
O=c1c(O)c(-c2ccc(O)c(O)c2)oc2cc(O)ccc12	superoxide radical scavenging	–	together with: xanthine/xanthine oxidase	–	IC50	3 to 5 µM
Ac-ELDWDADDIRLQIDNPD-NH2 (N-acetyl, C-amide)	western blot	peptide, Tsk/+ mouse, myocardium	subcutaneous, 1 mg/kg/day, 21 days	–	ICAM-1 protein level	decreased
O=C(O)c1cc(O)c(O)c(O)c1	superoxide scavenging, PMS-NADH system	–	–	–	IC50	29 µM
C[C@]12CC[C@@H]3c4ccc(O)cc4CC[C@H]3[C@@H]1CCC2=O	lipid peroxidation, measured: malondialdehyde	rat brain homogenate	–	–	IC50	80.8 µM
ferroquine	–	mouse malaria model	oral, single dose	–	curative dose	30 mg/kg
CN1CC[C@H](c2c(O)cc(O)c3c(=O)cc(-c4ccccc4Cl)oc23)[C@H](O)C1	–	human	intravenous infusion, dose not given, after stopping therapy	–	disease-free interval	48 months
C[C@]12CCC[C@@H]1[C@H]1CCc3cc(O)ccc3[C@@H]1CC2 (single isomer, unassigned)	lipid peroxidation, TBARS	rat brain homogenate	together with: 50 µM ferric ions	–	IC50	9.17 µM
insulin glulisine	measured: total insulin	human	subcutaneous upper arm, 0.2 U/kg, dose-adjusted from 0.1 U/kg	–	Cmax	0.821 nM
O=c1c(O)c(-c2ccc(O)c(O)c2)oc2cc(O)cc(O)c12	DPPH radical scavenging	–	together with: DPPH 50 µM	–	EC50	6.22 µM
CC(=O)O[C@H]1C(=O)[C@@]2(C)[C@H]([C@H](OC(=O)c3ccccc3)[C@]3(O)C[C@H](OC(=O)[C@H](O)[C@@H](NC(=O)c4ccccc4)c4ccccc4)C(C)=C1C3(C)C)[C@]1(OC(C)=O)CO[C@@H]1C[C@@H]2O	–	mouse brain metastasis model	dose not given, highest drug concentration subset	–	brain metastases with cytotoxicity	10%
C[C@]12CC[C@@H]3c4cc(C56CC7CC(CC(C7)C5)C6)c(O)cc4CC[C@H]3[C@@H]1CCC2=O	lipid peroxidation, TBARS	rat brain homogenate	together with: 50 µM ferric ions	–	IC50	1.13 µM
COc1ccc2c(O[C@@H]3C[C@H]4C(=O)N[C@]5(C(=O)NS(=O)(=O)C6CC6)C[C@H]5/C=C\CCCCN(C)C(=O)[C@@H]4C3)cc(-c3nc(C(C)C)cs3)nc2c1C	–	HCV genotype 1 prior relapsers	concentration not given, together with: peginterferon and ribavirin	–	SVR rate	79.2%
CC(=O)Oc1ccccc1C(=O)O	–	postmenopausal women	dose not given, long-term regular use	–	breast cancer risk reduction	21%
Nc1ncn([C@@H]2O[C@H](CO)[C@@H](O)[C@H]2O)c(=O)n1	–	human advanced solid tumour patients	20 to 25 mg/m^2 daily, 10 days	–	stable disease	35%
CS(=O)(=O)CCNCc1ccc(-c2ccc3ncnc(Nc4ccc(OCc5cccc(F)c5)c(Cl)c4)c3c2)o1	–	HER2-positive breast cancer patients	dose not given, together with: capecitabine	reference: trastuzumab and capecitabine	CNS progression rate	no effect
leuprorelin	measured: serum testosterone	patients	dose not given, 24 weeks, 3-month formulation	–	castration rate	100%
CCn1cc(C(=O)N2CCOCC2)c(=O)c2cc(NC3Cc4ccccc4C3)cnc21	fMRI	generalised anxiety disorder patients	single dose	–	amygdala reactivity	decreased
CC(C)(O)CCn1cc2cc(NC(=O)c3cccc(C(F)(F)F)n3)c(C(C)(C)O)cc2n1	TNF-alpha release	healthy male human, whole blood	400 mg daily, 10 days, together with: LPS 0.1 ng/mL for 6 h	–	inhibition	70%

A few entries again:
Molecule	assay	system	setting	how to read	quantity	value
CCCc1nn(C)c2c(=O)[nH]c(-c3cc(S(=O)(=O)N4CCN(C)CC4)ccc3OCC)nc12	ambulatory blood pressure monitoring, measured: DBP	healthy and hypertensive humans	100 mg, evening dosing	–	blood pressure reduction	-4.5 mmHg
COCCOCCOCCOc1ccc(C2=N[C@@](C)(C(=O)O)CS2)c(O)c1	–	bile duct-cannulated rats, non iron-overloaded	oral, 300 µmol/kg, 24 h, monosodium salt	–	iron clearing efficiency	5.5 ± 1.9%
insulin glulisine	measured: total insulin	human	subcutaneous upper arm, 0.2 U/kg, dose-adjusted from 0.1 U/kg	–	Cmax	0.821 nM
O=C1NC(=O)C(c2ccccc2)(c2ccccc2)N1	protection from seizures	CF-1 mice, 6 Hz corneal stimulation	ip, together with: 22 mA	–	ED50	9.4 mg/kg
KCNTATCATQRLANFLVHSSNNFGPILPPTNVGSNTY (Pramlintide; not fully specified (C-terminus, bridges); cysteine pairing not given here; sequence looked up)	–	peptide, obese humans	360 µg twice daily, 6 months, completers, with lifestyle intervention	reference: baseline	body weight loss	7 to 8%
Nc1ncn([C@@H]2O[C@H](CO)[C@@H](O)[C@H]2O)c(=O)n1	–	human advanced solid tumour patients	20 to 25 mg/m^2 daily, 10 days	–	stable disease	35%
Neurokinin A	bladder contraction, agonist	human bladder strips	–	–	EC50	~0.04 µM
Nc1nc(Cl)nc2c1ncn2[C@H]1C[C@H](O)[C@@H](CO)O1	–	paediatric AML patients	dose not given, before induction therapy	–	complete remission rate	27%
CC(=O)Oc1ccccc1C(=O)O	–	postmenopausal women	dose not given, long-term regular use	–	breast cancer risk reduction	21%
